Measurements gathered from unrelated publications.
Parts stem from different laboratories: compare values within a part only. Positions count from the first letter of the parent shown.

Study 1
Target: TAR DNA-binding protein 43, full length, His tag (TARDBP, Homo sapiens, UniProt Q13148, residues 1-414)
Technique: RNA Bind-n-Seq
Molecule type: RNA
Matrix: in vitro
Concentration: 20 nM
Setting: 6-mer, flanks averaged, single round
With: 150 mM KCl
Reference: input library
Direction: higher = stronger binding
Quantity: 6-mer enrichment (R)
GAGUCA: 0.857
UCUAAC: 0.566
GACCAC: 0.725
GGGUCU: 1.76
GGGAAC: 2.11
GUAGUC: 0.78
AGAUCG: 0.822
UCGAUC: 0.56

Study 2
Target: RING finger protein unkempt homolog, zinc fingers 1-6, GST-SBP tag (UNK, Homo sapiens, UniProt Q9C0B0, residues 30-357)
Technique: RNA Bind-n-Seq
Molecule type: RNA
Matrix: in vitro
Concentration: not given
Setting: RNA with constant flanks, human and mouse sites, ends assumed
Reference: input RNA pool
Direction: higher = stronger binding
Quantity: bound/input enrichment
Constant ends, left off below: GGGAGUUCUACAGUCCGACGAUC … CAACAGAGGAUUGAGCAUCA
Construct (chain): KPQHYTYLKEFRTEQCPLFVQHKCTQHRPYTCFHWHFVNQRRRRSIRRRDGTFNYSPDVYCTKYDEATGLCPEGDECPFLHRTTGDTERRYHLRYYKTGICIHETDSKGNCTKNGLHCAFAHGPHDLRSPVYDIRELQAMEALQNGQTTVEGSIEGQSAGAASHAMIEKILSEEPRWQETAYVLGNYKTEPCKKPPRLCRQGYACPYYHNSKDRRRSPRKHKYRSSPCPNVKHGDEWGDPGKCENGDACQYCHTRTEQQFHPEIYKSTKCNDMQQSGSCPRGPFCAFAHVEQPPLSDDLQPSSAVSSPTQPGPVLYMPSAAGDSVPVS
AAGAGCACCUCAGGAAGCACUGGGGCGGGUGACACUCGUCUCGGCGACCAAGGGCAGUGCUAGCAUCUGUCCGCAUUGCCUAUGCUCCGUUCAAUCCUGAACUAAAGCGUACACUUCUUC: 0.0376 ratio
GCAAAACCACACCCGGCAUGAGGCAAAUCUUAGUCAACUGCUGUGAAGAGUCUGAAGCAGACCUGUAUCCCACACCUGGGAAUAAAACAAAAACAUAGUCUCAUAACAUUUCAGUGGAUU: 0.353 ratio
UACCUUAUAUUACAUCUCAUCUCCACAGUAUAUACAAGAAGAGAUGUCCUUCCACUAGGAAAAUUUACAGUUAACUUGAGUGGUUGCCCACGGAAUAGUACCUUCACAGAACACUUGUAU: 2.58 ratio
AAUUGGAAACCCUUUGUAUAUGGCGGCCUUGCCUCUAUCGUGGCUGAGUUUGGGACUUUCCCUGUGGACCUUACCAAAACACGACUUCAGGUUCAAGGCCAAAGCAUUGAUGCCCGUUUC: 0.107 ratio
ACGAUGACGACCUGUCUGUUCGACACUGCACUAAUGCUUACAUGUUAGUCUACAUCAGGGAAUCAAAACUGAGUGAAGUUUUACAGGCGGUCACCGACCAUGAUAUUCCUCAGCAGUUGG: 0.14 ratio
GAUGGGAGAAGGAUGUCUUUUCAGAAGCCUAAAGGAACCAUUGAAUAUACUGUUGAAUCAAGGGAUUCUUUGAAUAGCAUAGCCCUGAAAUUUGAUACCACACCCAAUGAACUUGUUCAG: 0.246 ratio
GGGGGAGGGGGAGAAGAUGCUCAUGGUCAGAGAGAUGUGGCGCUGAGAAAUUGGAAACGGUGAUGAAAUGUUGUUGGAGUUAAAGUGAAAUGAGUAGUUUUAAACAGAUUUUCCAAGUUU: 1.38 ratio
CCCUGACUGCAGAGCCUUCAUCGUCUGGCUGGCCAACGGGGACACCCUCCGUGUCUUCAAGAUGACCAAGCGGGAGGAUGGGGGCUACACCUUCACAGCCACCCCAGAGGACUUCCCUAA: 0.0876 ratio

Study 3
Target: RNA binding protein fox-1 homolog 2, RRM domain, GST-SBP tag (RBFOX2, Homo sapiens, UniProt O43251-10, residues 100-194)
Technique: RNA Bind-n-Seq
Molecule type: RNA
Matrix: in vitro
Concentration: 365 nM
Setting: natural RNA segment, single round, ends assumed
Reference: no-protein control
Direction: higher = stronger binding
Quantity: RBNS enrichment (R)
Constant ends, left off below: GGGAGUUCUACAGUCCGACGAUC … UGGAAUUCUCGGGUGCCAA
Target sequence (chain): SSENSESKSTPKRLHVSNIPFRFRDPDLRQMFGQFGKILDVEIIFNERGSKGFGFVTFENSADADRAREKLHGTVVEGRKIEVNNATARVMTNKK
CCUAGUUGCAUGUCCAAGGGGGUAGAUUUUCAUCACCCUACUAAAUGUGGUAUGUCACUGCUGAAGCCUUUUCCUGUUUUAGUAAUAUCUUAGGCACUAUUGUCUUUUGU: 2.69
CAGCCCCUGGAGCCAACAUUUUGGUUGUGGGAGGCUGACCUCUUGCCUGCCUCCUUGUGUGGACAGAGUGGUGAAGACGUAUUCCUCACCUCCUUGCCUUUCAGUAAAUG: 0.359
GGCAGGCAGGGAGAGAAGACGCCUGGGCCUCUCCAUUGUUUGUUUCCCAGGGUGAUUUCCUCAGUGCACAGGCAGCUCGAGAUGGAGGGAGGACAGCCACCAACUAGCUC: 0.676
GUAGCAAUGGCCAGAGCCUCUGGCCCCUCACCCACCAUGGACCAGCCCAUUGGCCGAGCUCCUGGGGAGCUCCUGGGACCCUUGGCUAUGAAAAUGAGCCCUGGCUCCCA: 0.187
CACAGUGCGUUCCAUAUUGUGAUAAGGUAACGUGAGGUUUUUUUGUUUUGUUUUGUUUUCUUUUUUUUUUUUCUGAGCUAGCCUUUAGAACACUGUUGUGGUAUGUAUGC: 5.03
CGUGUAGUUGGUGUGAGUAUUCUGUGACACAAGUGACGACAGGCUCAGUGACUGCCUGUACCUGUGCAACCCUCGCUUGCUCCUUGGAGAACCUGACAGGACGCUGAAGA: 0.393
AGCAGUUUAAACCUCCUGACCCACUUAACCUAUCUCUUUUGUUUAUUCCCUGAAGUAUGUAAUCCUUUGUACAGCUUUUCUAUCUUACAUAUAAAAAGGAGACAUGAGAA: 0.477
UGUACUUGACGGCUGGCCUCCAGGGUCUCUCUUGCUUUGUACUGGUUCCCCUCUUUACCUUCACCAUUCGCUGCUUCUGCCAAGUCUGUGAAGCCGUCCUUUGUAGGAUG: 0.717

Further values, each from its own experiment
Starting sequence: PafA, mature enzyme, eGFP fusion (Elizabethkingia meningoseptica, UniProt Q9KJX5); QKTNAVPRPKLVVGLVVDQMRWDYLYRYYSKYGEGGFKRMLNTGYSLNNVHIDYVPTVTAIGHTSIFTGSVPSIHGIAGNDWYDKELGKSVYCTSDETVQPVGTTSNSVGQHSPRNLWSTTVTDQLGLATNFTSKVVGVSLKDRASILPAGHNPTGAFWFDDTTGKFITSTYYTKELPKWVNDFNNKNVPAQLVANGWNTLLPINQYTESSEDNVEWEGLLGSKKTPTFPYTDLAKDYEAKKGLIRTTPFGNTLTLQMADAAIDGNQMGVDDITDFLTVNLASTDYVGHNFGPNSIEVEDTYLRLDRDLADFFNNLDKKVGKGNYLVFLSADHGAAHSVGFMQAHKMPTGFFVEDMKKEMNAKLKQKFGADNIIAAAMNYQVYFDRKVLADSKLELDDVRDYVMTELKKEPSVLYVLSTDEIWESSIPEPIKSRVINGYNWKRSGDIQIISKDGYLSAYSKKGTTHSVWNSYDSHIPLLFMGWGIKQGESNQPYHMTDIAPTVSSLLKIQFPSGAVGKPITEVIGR
H466G
oxyanion analog dissociation constant (tungstate, free oxyanion; microfluidic competitive inhibition; in vitro, cell-free expressed; not given, derived from inhibition constants, unchanged parent 2230 nM; lower = stronger binding): 25.1 µM

Some of these lines once more (study 3):
GGCAGGCAGGGAGAGAAGACGCCUGGGCCUCUCCAUUGUUUGUUUCCCAGGGUGAUUUCCUCAGUGCACAGGCAGCUCGAGAUGGAGGGAGGACAGCCACCAACUAGCUC: 0.676
GUAGCAAUGGCCAGAGCCUCUGGCCCCUCACCCACCAUGGACCAGCCCAUUGGCCGAGCUCCUGGGGAGCUCCUGGGACCCUUGGCUAUGAAAAUGAGCCCUGGCUCCCA: 0.187
